Assay results gathered from unrelated publications.
Each numbered part is a random draw from the data of one study; scales do not carry over between parts. Positions count from the first letter of the parent shown.

Sample 1
Target: Histone acetyltransferase KAT6A, winged helix 2, GST fusion (KAT6A, Homo sapiens, UniProt Q92794, residues 85-181)
Method: protein binding microarray
Molecule type: double-stranded DNA, one strand shown
Matrix: in vitro
Tested at: not given
Notes: 8-mer, flanks averaged, mean of 2 arrays, mostly near background
Baseline: not given
Reading: higher = stronger binding
Construct (chain): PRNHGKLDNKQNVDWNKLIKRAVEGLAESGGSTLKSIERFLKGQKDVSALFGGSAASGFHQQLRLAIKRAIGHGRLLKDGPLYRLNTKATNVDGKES
For `ACACTAGC`, the E-score was 0.0292.
`TAAGCCAA` has an E-score of -0.131.
`CAAGGCAG` has an E-score of 0.0235.
For `CCCATCTC`, the E-score was -0.0509.
With `CGCCTAAC` the E-score was -0.0815.
The E-score of `AGTAGACC` is reported as -0.0196.
`AGAGTACG` has an E-score of -0.0924.
For `GACGTGGC`, the E-score was -0.188.

Sample 2
Target: MAFF, bZIP domain (human)
Method: DHFR protein complementation
Matrix: yeast
Notes: single substitutions, most at no-binding floor
Baseline: wild-type JUN-FOS pair
Reading: higher = stronger binding
Starting sequence: JUN, bZIP domain (human); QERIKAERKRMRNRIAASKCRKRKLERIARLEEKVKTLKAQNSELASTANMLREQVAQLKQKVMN; partner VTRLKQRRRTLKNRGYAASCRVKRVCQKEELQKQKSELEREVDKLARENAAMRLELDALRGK
`V56A` gave a binding fitness of -1.5 natural log.
`T48K` gave a binding fitness of -1.47 natural log.
The binding fitness of `R53D` is reported as -1.53 natural log.
`T48Q` gave a binding fitness of -1.48 natural log.
For `K34R`, the binding fitness was -1.33 natural log.
`M51L` has a binding fitness of -1.51 natural log.
With `Q41D` the binding fitness was -1.53 natural log.
For `E33G`, the binding fitness was -1.47 natural log.

Other studies, line by line
`BCAS2 (Homo sapiens, UniProt O75934)`: interaction screen “cross-linked” (CDC5L (Homo sapiens, UniProt Q99459); cross-linking MS; hits only).
`RFNAIWFNH` — result for binding: “inactive” (HLA class I histocompatibility antigen, A alpha chain, allele A*25:01 (Homo sapiens, UniProt P04439); peptide-MHC binding; peptide; concentration not given).
`HNRNPK (Homo sapiens, UniProt P61978)`: cross-linked residues “S216 to S137” (MGAT2 (Homo sapiens, UniProt Q10469); cross-linking MS; cell fractions; with: DSSO).
`DDX6 (Homo sapiens, UniProt P26196)` — result for cross-linked residues: “K269 to K154” (LSM12 (Homo sapiens, UniProt Q3MHD2); cross-linking MS; cell fractions; with: DSSO).
`FKBP4 (Homo sapiens, UniProt Q02790)`: cross-linked residues “K274 to T424” (SAMD4A (Homo sapiens, UniProt Q9UPU9); cross-linking MS; cell fractions; with: DSSO).

Excerpt of the above (sample 1):
With `CGCCTAAC` the E-score was -0.0815.
For `CCCATCTC`, the E-score was -0.0509.
